{"data": "Assay results pooled from the literature", "note": "Lines come from different studies, so protocols differ. Values joined by “and” are separate records of one study, mostly repeats; a detail may differ. ± gives the spread as reported.", "chain of UniProt Q9NYV8 (whole entry, unmodified, looked up)": "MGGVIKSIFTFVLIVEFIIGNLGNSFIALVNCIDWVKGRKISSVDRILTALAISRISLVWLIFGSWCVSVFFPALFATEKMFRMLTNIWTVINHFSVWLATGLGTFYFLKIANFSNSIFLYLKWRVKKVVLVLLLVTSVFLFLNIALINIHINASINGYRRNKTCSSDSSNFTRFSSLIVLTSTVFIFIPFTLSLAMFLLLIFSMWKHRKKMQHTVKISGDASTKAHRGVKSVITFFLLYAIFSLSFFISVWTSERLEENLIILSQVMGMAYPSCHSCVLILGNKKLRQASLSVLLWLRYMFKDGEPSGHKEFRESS", "chain of UniProt O75762 (whole entry, looked up)": "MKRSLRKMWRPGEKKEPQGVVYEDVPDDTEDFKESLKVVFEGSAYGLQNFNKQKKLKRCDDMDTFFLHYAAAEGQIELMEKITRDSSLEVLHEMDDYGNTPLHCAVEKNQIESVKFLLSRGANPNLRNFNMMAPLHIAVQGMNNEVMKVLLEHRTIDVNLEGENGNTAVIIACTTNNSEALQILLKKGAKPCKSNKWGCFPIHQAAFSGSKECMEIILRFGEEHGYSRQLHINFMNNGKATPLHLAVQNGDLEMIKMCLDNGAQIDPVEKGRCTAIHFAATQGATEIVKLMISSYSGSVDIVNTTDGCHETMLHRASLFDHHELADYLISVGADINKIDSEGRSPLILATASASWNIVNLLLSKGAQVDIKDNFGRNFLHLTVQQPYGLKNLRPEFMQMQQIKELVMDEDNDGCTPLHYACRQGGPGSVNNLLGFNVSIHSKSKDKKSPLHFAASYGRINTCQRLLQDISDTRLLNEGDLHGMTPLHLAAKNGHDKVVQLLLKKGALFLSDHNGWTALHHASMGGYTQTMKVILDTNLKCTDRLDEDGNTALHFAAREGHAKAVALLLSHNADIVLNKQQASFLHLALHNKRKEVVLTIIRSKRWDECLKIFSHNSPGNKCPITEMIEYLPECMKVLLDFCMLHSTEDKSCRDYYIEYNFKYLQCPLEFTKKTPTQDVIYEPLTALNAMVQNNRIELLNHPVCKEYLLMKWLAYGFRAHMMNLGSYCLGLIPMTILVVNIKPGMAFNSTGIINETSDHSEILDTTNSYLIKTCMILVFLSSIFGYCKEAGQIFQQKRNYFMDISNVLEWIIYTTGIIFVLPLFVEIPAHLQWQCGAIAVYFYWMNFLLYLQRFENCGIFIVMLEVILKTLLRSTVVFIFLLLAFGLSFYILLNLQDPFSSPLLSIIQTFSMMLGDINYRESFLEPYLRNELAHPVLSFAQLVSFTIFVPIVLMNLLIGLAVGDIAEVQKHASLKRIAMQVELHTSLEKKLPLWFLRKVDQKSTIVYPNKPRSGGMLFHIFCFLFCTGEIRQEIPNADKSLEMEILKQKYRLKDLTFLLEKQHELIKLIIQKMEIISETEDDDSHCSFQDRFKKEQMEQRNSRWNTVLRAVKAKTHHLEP", "chain of UniProt P51575 (whole entry, unmodified, looked up)": "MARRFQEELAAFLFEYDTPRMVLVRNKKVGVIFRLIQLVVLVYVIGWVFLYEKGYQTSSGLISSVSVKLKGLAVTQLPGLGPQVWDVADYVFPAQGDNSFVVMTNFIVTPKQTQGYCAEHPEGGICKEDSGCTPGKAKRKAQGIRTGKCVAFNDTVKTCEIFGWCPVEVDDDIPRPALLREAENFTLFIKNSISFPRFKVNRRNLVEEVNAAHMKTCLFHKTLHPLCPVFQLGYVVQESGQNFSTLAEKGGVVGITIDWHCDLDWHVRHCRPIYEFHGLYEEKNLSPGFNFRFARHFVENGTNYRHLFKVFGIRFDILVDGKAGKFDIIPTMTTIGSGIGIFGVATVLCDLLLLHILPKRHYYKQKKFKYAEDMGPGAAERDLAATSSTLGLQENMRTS", "chain of UniProt P22736 (whole entry, looked up)": "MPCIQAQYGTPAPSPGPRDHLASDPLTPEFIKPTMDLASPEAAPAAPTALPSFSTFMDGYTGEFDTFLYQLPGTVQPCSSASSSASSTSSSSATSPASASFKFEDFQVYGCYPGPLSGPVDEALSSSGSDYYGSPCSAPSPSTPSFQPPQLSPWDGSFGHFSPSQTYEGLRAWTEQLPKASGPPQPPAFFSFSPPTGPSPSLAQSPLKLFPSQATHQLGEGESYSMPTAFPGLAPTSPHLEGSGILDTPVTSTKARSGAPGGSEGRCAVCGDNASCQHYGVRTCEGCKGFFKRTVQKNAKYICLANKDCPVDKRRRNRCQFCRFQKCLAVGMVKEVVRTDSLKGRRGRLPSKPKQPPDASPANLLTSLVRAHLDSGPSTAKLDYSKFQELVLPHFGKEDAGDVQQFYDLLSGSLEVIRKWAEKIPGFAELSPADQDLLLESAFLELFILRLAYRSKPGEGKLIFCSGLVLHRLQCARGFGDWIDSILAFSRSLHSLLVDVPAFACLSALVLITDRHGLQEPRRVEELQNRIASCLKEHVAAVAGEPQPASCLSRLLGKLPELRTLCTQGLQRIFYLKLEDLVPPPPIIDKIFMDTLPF", "chain of UniProt Q96NY8 (whole entry, looked up)": "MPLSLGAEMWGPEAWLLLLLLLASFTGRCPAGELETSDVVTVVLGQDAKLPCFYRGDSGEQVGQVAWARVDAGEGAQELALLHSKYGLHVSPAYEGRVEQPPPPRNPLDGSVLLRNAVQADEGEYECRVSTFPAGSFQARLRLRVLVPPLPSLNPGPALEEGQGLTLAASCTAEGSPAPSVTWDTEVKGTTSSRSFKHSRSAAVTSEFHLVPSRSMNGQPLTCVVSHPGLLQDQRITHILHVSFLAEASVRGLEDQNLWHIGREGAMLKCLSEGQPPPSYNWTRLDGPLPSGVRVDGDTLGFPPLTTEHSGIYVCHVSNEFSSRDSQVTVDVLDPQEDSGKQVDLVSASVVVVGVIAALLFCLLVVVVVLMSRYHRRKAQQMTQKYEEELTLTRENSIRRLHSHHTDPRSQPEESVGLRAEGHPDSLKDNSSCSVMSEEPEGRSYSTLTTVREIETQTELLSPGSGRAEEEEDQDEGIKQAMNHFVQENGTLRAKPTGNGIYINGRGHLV", "chain of UniProt Q07011 (whole entry, unmodified, looked up)": "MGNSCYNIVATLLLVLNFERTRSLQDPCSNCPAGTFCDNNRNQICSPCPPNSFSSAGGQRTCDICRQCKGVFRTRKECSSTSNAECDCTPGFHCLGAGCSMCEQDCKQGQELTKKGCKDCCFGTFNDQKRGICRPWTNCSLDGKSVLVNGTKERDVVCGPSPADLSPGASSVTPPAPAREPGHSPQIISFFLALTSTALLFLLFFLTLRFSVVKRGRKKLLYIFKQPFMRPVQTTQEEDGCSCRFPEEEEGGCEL", "chain of UniProt P0A8V2 (whole entry, looked up)": "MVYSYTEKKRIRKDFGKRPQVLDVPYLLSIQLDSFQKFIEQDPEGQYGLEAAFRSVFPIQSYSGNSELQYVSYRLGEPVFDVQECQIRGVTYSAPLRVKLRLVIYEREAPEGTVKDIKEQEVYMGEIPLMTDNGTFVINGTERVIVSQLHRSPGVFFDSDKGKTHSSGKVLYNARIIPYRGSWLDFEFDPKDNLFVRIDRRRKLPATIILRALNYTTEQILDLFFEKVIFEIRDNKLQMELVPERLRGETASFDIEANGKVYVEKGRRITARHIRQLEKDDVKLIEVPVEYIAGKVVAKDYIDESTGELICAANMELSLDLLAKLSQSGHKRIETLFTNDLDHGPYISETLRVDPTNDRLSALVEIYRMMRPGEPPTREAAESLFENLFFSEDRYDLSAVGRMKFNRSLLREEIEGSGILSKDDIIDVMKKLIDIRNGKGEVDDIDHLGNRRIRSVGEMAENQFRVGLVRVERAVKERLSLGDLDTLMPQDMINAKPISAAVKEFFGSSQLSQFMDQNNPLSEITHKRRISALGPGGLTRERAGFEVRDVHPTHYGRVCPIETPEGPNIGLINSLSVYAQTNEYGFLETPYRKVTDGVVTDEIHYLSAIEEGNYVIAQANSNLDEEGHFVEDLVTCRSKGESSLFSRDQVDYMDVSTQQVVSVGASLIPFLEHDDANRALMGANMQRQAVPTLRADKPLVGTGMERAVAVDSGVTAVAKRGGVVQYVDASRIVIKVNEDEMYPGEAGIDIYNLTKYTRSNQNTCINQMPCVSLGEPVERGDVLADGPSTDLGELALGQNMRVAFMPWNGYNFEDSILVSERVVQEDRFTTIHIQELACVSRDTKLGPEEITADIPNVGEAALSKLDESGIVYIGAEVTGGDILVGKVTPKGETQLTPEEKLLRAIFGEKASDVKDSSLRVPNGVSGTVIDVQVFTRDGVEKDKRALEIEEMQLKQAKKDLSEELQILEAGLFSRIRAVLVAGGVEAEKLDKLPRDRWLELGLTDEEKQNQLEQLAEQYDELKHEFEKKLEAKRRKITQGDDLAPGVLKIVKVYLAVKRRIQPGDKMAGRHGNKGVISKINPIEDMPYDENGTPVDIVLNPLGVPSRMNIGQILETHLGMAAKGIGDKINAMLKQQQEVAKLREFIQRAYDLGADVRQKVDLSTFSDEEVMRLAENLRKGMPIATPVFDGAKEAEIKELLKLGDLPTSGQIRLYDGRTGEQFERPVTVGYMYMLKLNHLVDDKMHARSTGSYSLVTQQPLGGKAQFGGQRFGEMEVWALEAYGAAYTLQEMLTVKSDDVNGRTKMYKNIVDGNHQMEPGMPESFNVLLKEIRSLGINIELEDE", "chain of UniProt Q9BZJ6 (whole entry, looked up)": "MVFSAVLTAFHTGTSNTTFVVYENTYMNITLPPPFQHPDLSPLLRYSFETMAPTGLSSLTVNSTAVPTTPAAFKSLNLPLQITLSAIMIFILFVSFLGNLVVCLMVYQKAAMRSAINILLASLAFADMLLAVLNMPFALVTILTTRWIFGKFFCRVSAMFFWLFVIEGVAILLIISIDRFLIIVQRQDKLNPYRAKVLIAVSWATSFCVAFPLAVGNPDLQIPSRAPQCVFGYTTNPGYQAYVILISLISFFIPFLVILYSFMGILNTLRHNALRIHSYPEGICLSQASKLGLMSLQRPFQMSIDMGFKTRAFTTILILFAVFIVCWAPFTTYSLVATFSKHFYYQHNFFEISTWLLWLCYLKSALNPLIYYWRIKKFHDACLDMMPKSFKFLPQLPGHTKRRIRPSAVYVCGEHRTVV"}
{"Structure (SMILES)": "O=C(O)c1ccccc1Nc1cccc(C(F)(F)F)c1", "target": "Taste receptor type 2 member 14 (TAS2R14, Homo sapiens, UniProt Q9NYV8)", "test": "G-protein dissociation, TRUPATH gustducin BRET", "conditions": "100 nM, wild-type receptor, unit not given", "scale": "relative to: vehicle", "endpoint": "ΔBRET", "value": "0.00116 and 0.0103 and 0.0376 and 0.00716 and 0.0263 and 0.00575 and 0.0225"}
{"Structure (SMILES)": "CCCC[C@@H]1NC(=O)[C@H](Cc2ccc(O)cc2)NC(=O)[C@@H]2CCCN2C(=O)[C@H](CC(=O)O)NC(=O)[C@H](C)NC(=O)[C@H](Cc2ccccc2)NC(=O)[C@@H]2CSCCC(=O)N3CN(CN(C3)C(=O)CCSC[C@@H](C(=O)N[C@@H](C)C(N)=O)NC1=O)C(=O)CCSC[C@H](NC(C)=O)C(=O)N[C@@H](CC(C)(C)C)C(=O)N1CCC[C@H]1C(=O)N[C@@H](CCC(=O)O)C(=O)N[C@H](CCCCNC(=O)CCOCCOCCOCCOCCOCCOCCOCCOCCOCCOCCOCCOCCn1cc(CCC(=O)NCCC(=O)N(C)CC(=O)N(C)CC(=O)N(C)CC(=O)N(C)CC(=O)N(C)CC(=O)N(C)CC(=O)N(C)CC(=O)N(C)CC(=O)N(C)CC(=O)N(C)CC(=O)N[C@H]3CSCCC(=O)N4CN5CN(C4)C(=O)CCSC[C@H](NC(=O)[C@@H](CC(=O)O)NC(=O)[C@H](Cc4cccc6ccccc46)NC(=O)[C@@H]4CCCN4C3=O)C(=O)N[C@@H](CCSC)C(=O)N[C@@H](CCCCNC(=N)N)C(=O)N[C@@H](CC(=O)O)C(=O)N[C@@H](Cc3c[nH]c4ccccc34)C(=O)N[C@@H](CO)C(=O)N[C@@H]([C@@H](C)O)C(=O)N3CCC[C@H]3C(=O)N3C[C@H](O)C[C@H]3C(=O)N[C@@H](Cc3c[nH]c4ccccc34)C(=O)N[C@H](C(N)=O)CSCCC5=O)nn1)C(=O)N1CCC[C@H]1C(=O)N[C@@H](Cc1ccc(O)cc1)C(=O)N2", "target": "Tumor necrosis factor receptor superfamily member 9/Nectin-4 (Homo sapiens, UniProt Q07011+Q96NY8)", "test": "reporter gene, agonist", "test system": "HT-1376 coculture with reporter cells", "scale": "relative to: background", "endpoint": "Emax", "value": "44 fold"}
{"Structure (SMILES)": "CCS(=O)(=O)N1CC(CC#N)(n2cc(-c3ncnc4[nH]ccc34)cn2)C1", "target": "Alpha-1-acid glycoprotein 1 (ORM1, Homo sapiens, UniProt P02763)", "test": "3D fluorescence", "conditions": "2.4 µM", "endpoint": "Stokes shift", "value": "49 nm"}
{"Structure (SMILES)": "[H]/N=C(/N)NCC(=O)O", "target": "Sodium- and chloride-dependent taurine transporter (SLC6A6, Homo sapiens, UniProt P31641, Y138A)", "test": "binding, microscale thermophoresis", "conditions": "125 µM, room temperature, added: 50 nM labelled protein", "scale": "higher = more binding", "endpoint": "normalised MST signal", "value": -0.00664}
{"Structure (SMILES)": "CCN1CCC[C@H]1CNC(=O)c1c(O)c(Cl)cc(Cl)c1OC", "target": "Probable G-protein coupled receptor 63 (GPR63, Homo sapiens, UniProt Q9BZJ6)", "test": "β-arrestin recruitment, TANGO luminescence, measured: GPR63", "conditions": "concentration not given", "scale": "relative to: basal luminescence", "endpoint": "log2 fold change", "value": 0.705}
{"Structure (SMILES)": "Nc1ncnc2c1ncn2[C@@H]1O[C@H](COP(=O)(O)CP(=O)(O)OP(=O)(O)O)[C@@H](O)[C@H]1O", "target": "P2X purinoceptor 1 (P2RX1, Homo sapiens, UniProt P51575, R292A)", "test": "calcium influx", "conditions": "3.16 nM", "scale": "relative to: ionomycin response", "endpoint": "calcium influx", "value": "0% and 1.97%"}
{"Structure (SMILES)": "COc1cccc2c(Nc3ccc4[nH]c(C(=O)N/N=C/c5ccc(SC)cc5)cc4c3)cc(C)nc12", "target": "Nuclear receptor subfamily 4 group A member 1 (NR4A1, Homo sapiens, UniProt P22736)", "test": "reporter gene, Gal4 hybrid reporter", "conditions": "3 µM", "scale": "relative to: vehicle", "endpoint": "activation", "value": "0.7 fold"}
{"Structure (SMILES)": "C[C@H]1O[C@@H](O[C@H]2CC[C@@]3(C)[C@@H](CC[C@]4(C)[C@@H]3C=C[C@]35OC[C@@]6(CCC(C)(C)C[C@H]63)[C@@H](O)C[C@]54C)[C@]2(C)CO)[C@H](O)[C@@H](O[C@@H]2O[C@H](CO)[C@@H](O)[C@H](O)[C@H]2O)[C@H]1O", "target": "NAD-dependent protein deacetylase sirtuin-1 (SIRT1, Homo sapiens, UniProt Q96EB6)", "test": "binding, microscale thermophoresis", "conditions": "173 nM", "endpoint": "MST normalised fluorescence", "value": "885 a.u."}
{"Structure (SMILES)": "O=c1ccn([C@@H]2O[C@H](COP(=O)(O)OP(=O)(O)OP(=O)(O)O)[C@@H](O)[C@H]2O)c(=O)[nH]1", "target": "DNA-directed RNA polymerase subunit beta' / DNA-directed RNA polymerase subunit beta (rpoC/rpoB, Escherichia coli, UniProt P0A8T7+P0A8V2)", "test": "RNA extension, rapid quench-flow", "test system": "Escherichia coli, elongation complex, 6-MI template", "conditions": "200 µM, 25 °C, slow complex fraction", "endpoint": "nucleotide addition rate", "value": "1 ± 0.1 s⁻¹"}
{"Structure (SMILES)": "C=CC(=O)N1CCC(COCC(=O)N2CCN(c3nc(-c4cnc(N)nc4C(F)F)nc(N4CCOC[C@@H]4C)n3)CC2)CC1", "target": "cAMP-dependent protein kinase catalytic subunit PRKX (PRKX, Homo sapiens, UniProt P51817)", "test": "KINOMEscan", "conditions": "1 µM", "endpoint": "remaining binding", "value": "99%"}
{"Structure (SMILES)": "O=C(O)CCCc1cc2cc(Cl)ccc2n1S(=O)(=O)c1ccc2ncsc2c1", "target": "Peroxisome proliferator-activated receptor delta (PPARD, Homo sapiens, UniProt Q03181)", "test": "reporter gene, agonist, luciferase reporter", "scale": "relative to: maximal control activation", "endpoint": "Emax", "value": "53%"}
{"Structure (SMILES)": "[Ca]", "target": "Transient receptor potential cation channel subfamily A member 1 (TRPA1, Homo sapiens, UniProt O75762)", "test": "ion current, two-electrode voltage clamp", "test system": "Xenopus oocytes", "conditions": "concentration not given, -80 mV, added: extracellular Ca2+", "scale": "relative to: current before Ca2+ addition", "endpoint": "potentiation", "value": "13.8 fold change and 29.1 fold change and 20.9 fold change and 6.31 fold change and 23.6 fold change"}
{"note": "Repeated from above:"}
{"Structure (SMILES)": "[H]/N=C(/N)NCC(=O)O", "target": "Sodium- and chloride-dependent taurine transporter (SLC6A6, Homo sapiens, UniProt P31641, Y138A)", "test": "binding, microscale thermophoresis", "conditions": "125 µM, room temperature, added: 50 nM labelled protein", "scale": "higher = more binding", "endpoint": "normalised MST signal", "value": -0.00664}
